Published values gathered from unrelated publications.
Protocols differ between the studies behind these lines. Several values in a cell are separate wells, animals, samples, runs or records. Numbers after ± are the reported error.

Structure (SMILES) = C=CC(=O)Nc1cc(Nc2nccc(Nc3cc(Cl)c(F)cc3C(C)(C)O)n2)c(OC)cc1N1CC[C@@H](N(C)C)C1; test = treatment-emergent adverse events; test system = human; setting = oral, 300 mg, phase I clinical trial; measurement = incidence of blood creatine phosphokinase increased; result = 17.6%
Structure (SMILES) = CC[C@H](C)[C@H](NC(=O)[C@H](CCCCN)NC(=O)[C@H](CCC(=O)O)NC(=O)[C@H](CCCCN)NC(=O)[C@H](CO)NC(=O)[C@H](CCCCN)NC(=O)[C@H](CCCNC(=N)N)NC(=O)[C@H](Cc1ccccc1)NC(=O)[C@H](Cc1ccccc1)NC(=O)[C@H](CC(=O)O)NC(=O)CNC(=O)[C@H](CC(C)C)NC(=O)[C@@H](N)CC(C)C)C(=O)NCC(=O)N[C@@H](CCCCN)C(=O)N[C@@H](CCC(=O)O)C(=O)N[C@@H](Cc1ccccc1)C(=O)N[C@@H](CCCCN)C(=O)N[C@@H](CCCNC(=N)N)C(=O)N[C@H](C(=O)N[C@H](C(=O)N[C@@H](CCC(N)=O)C(=O)N[C@@H](CCCNC(=N)N)C(=O)N[C@H](C(=O)N[C@@H](CCCCN)C(=O)N[C@@H](CC(=O)O)C(=O)N[C@@H](Cc1ccccc1)C(=O)N[C@@H](CC(C)C)C(=O)N[C@@H](CCCNC(=N)N)C(=O)N[C@@H](CC(N)=O)C(=O)N[C@@H](CC(C)C)C(=O)N[C@H](C(=O)N1CCC[C@H]1C(=O)N[C@@H](CCCNC(=N)N)C(=O)N[C@H](C(=O)N[C@@H](CCC(=O)O)C(=O)N[C@@H](CO)C(=O)O)[C@@H](C)O)C(C)C)[C@@H](C)CC)C(C)C)[C@@H](C)CC; test = LC-MS; test system = buffer with human neutrophil elastase; setting = 40 µM, 60 min, pH 7.5, 37 °C; scale = reference: 0 h; measurement = remaining intact peptide; result = 5.19% and 6.52%
Structure (SMILES) = CCCCCOc1ccc(-c2ccc(-c3ccc(C(=O)N[C@H]4C[C@@H](O)[C@@H](OCC[N+](C)(C)C)NC(=O)[C@@H]5[C@@H](O)[C@@H](C)CN5C(=O)[C@H]([C@@H](C)O)NC(=O)[C@H]([C@H](O)[C@@H](O)c5ccc(O)cc5)NC(=O)[C@@H]5C[C@@H](O)CN5C(=O)[C@H]([C@@H](C)O)NC4=O)cc3)cc2)cc1; test system = adult ICU patients, mITT, serum; setting = dose not given, day 14; measurement = bilirubin; result = 13.5 µmol/L
Structure (SMILES) = CCCCCCCCCCCCCCCC(=O)N[C@@H](CCC(=O)NCCCC[C@H](NC(=O)[C@H](CC(=O)O)NC(=O)[C@H](CO)NC(=O)[C@@H](NC(=O)[C@H](Cc1ccccc1)NC(=O)[C@@H](NC(=O)CNC(=O)[C@H](CCC(N)=O)NC(=O)[C@H](CO)NC(=O)[C@@H](N)Cc1c[nH]cn1)[C@@H](C)O)[C@@H](C)O)C(=O)N[C@@H](CO)C(=O)N[C@@H](CCC(=O)O)C(=O)N[C@@H](Cc1ccc(O)cc1)C(=O)N[C@@H](CC(C)C)C(=O)N[C@@H](CC(=O)O)C(=O)N[C@@H](CO)C(=O)N[C@@H](CCC(=O)O)C(=O)N[C@@H](CCCNC(=N)N)C(=O)N[C@@H](C)C(=O)N[C@@H](CCCNC(=N)N)C(=O)N[C@@H](CC(=O)O)C(=O)N[C@@H](Cc1ccccc1)C(=O)N[C@H](C(=O)N[C@@H](C)C(=O)N[C@@H](Cc1c[nH]c2ccccc12)C(=O)N[C@@H](CC(C)C)C(=O)N[C@@H](CCC(=O)O)C(=O)N[C@@H](C)C(=O)NCC(=O)NCC(=O)O)C(C)C)C(=O)O; test = measured: Flatulence; test system = humans CrCl 30 to 45 mL/min; setting = subcutaneous, 100 µg single dose; measurement = treatment-related adverse events; result = 9.1%
Structure (SMILES) = CNC(=O)n1ccc2cc(Oc3ccnc(NC(=O)c4ccc(C5CCN(CCO)CC5)cc4)c3)c(OCCOC)cc21; test system = human, plasma; setting = oral, 35 mg, 144 h; measurement = AUC(0-inf) extrapolated; result = < 5%
Structure (SMILES) = COc1cc2c(Oc3ccc4[nH]c(C)cc4c3F)ccnc2cc1OCC1(N)CC1; test system = paediatric recurrent refractory sarcoma; setting = 12 mg; measurement = grade 3 Myalgia; result = 0%
Structure (SMILES) = CN[C@H](CC(C)C)C(=O)N[C@H]1C(=O)N[C@@H](CC(N)=O)C(=O)N[C@H]2C(=O)N[C@H]3C(=O)N[C@H](C(=O)N[C@H](C(=O)O)c4cc(O)cc(O)c4-c4cc3ccc4O)[C@H](O)c3ccc(c(Cl)c3)Oc3cc2cc(c3O[C@@H]2O[C@H](CO)[C@@H](O)[C@H](O)[C@H]2O[C@H]2C[C@](C)(N)[C@H](O)[C@H](C)O2)Oc2ccc(cc2Cl)[C@H]1O; test system = female rat, serum; setting = intraperitoneal, 200 mg/kg, 7 h, with: zileuton 4 mg/kg ip; measurement = AUC; result = 643 µg·h/mL
Structure (SMILES) = COc1ccc2c(c1)NC(=O)CN2c1nc(C)nc2c1CCC2; test = body weight; test system = NSG mouse; setting = preliminary; measurement = maximum tolerated dose; result = > 4 mg/kg
Structure (SMILES) = [O-][S+]1CCc2nc(N3CCC(c4ncc(Cl)cn4)CC3)nc(NC3(CO)CCC3)c21 (centres unmarked); test system = idiopathic pulmonary fibrosis patients; setting = 18 mg twice daily; measurement = Bronchitis adverse events; result = 10%
Structure (SMILES) = N[C@@H]1c2ccccc2OC12CCN(c1cnc3c(N4CCCc5ncccc54)n[nH]c3n1)CC2; test system = patients advanced metastatic solid tumours; setting = oral, 60 mg once daily, pooled RP2D cohorts; measurement = incidence of any TEAE; result = 100%
Structure (SMILES) = CO[C@H]1C[C@@H]2CC[C@@H](C)[C@@](O)(O2)C(=O)C(=O)N2CCCC[C@H]2C(=O)O[C@H]([C@H](C)C[C@@H]2CC[C@@H](OC(=O)NCCOCCOCCOCCOCCOCCOCCOCCOCCC(=O)N3CCc4cc(Cn5nc(-c6ccc7oc(N)nc7c6)c6c(N)ncnc65)ccc4C3)[C@H](OC)C2)C[C@@H](O)[C@H](C)/C=C(\C)[C@@H](O)[C@@H](OC)C(=O)[C@H](C)C[C@H](C)/C=C/C=C/C=C/1C; test system = patients with advanced solid tumours; setting = intravenous, 16 mg weekly, grade 3 or higher; measurement = constipation incidence; result = 0%
Structure (SMILES) = CN[C@@H](C)C(=O)N[C@H]1CN(S(=O)(=O)c2cccc(S(=O)(=O)N3CC[C@H]4CC[C@@H](C(=O)NC(c5ccccc5)c5ccccc5)N4C(=O)[C@@H](NC(=O)[C@H](C)NC)C3)c2)CC[C@H]2CC[C@@H](C(=O)NC(c3ccccc3)c3ccccc3)N2C1=O; test system = human, advanced solid tumours; setting = intravenous, 0.6 mg weekly, CTCAE version 4.0; measurement = patients with any TRAE; result = 0%
Structure (SMILES) = [2H]C([2H])([18F])[C@]([2H])(N)C(=O)O; test = PET; test system = athymic nude mice, U-87 MG, tumor; setting = dose not given, 20 min post-injection; measurement = tissue uptake; result = 1.59 ± 0.05 %ID/cc
Structure (SMILES) = O=C(O)CCCOc1ccc(F)cc1-c1cc(-c2ccccc2C(F)(F)F)n(-c2ccccc2)n1; test = measured: α1-glb; test system = Crl:CD(SD) rats, male, serum; setting = iv, 25 µg/kg, 14 days; measurement = serum protein fraction; result = 22 ± 4%
Structure (SMILES) = Cn1cc(-c2nc(N[C@@H]3CCCC[C@@H]3N)c(F)c3c2C(=O)NC3)cn1; test = measured: Hemoptysis; test system = patients with relapsed or refractory AML; setting = oral, 60 mg twice daily; measurement = hemorrhagic adverse events; result = 13%
Structure (SMILES) = C[C@H]1COCCN1c1nc(NCc2cccnc2C(F)(F)F)c2cccnc2n1; test system = anaesthetized rat; setting = intravenous, 3 mg/kg; scale = reference: control; measurement = heart rate change; result = -4.9%
Structure (SMILES) = COc1ccc2nc3cc(Cl)ccc3c(Nc3cc(CN4CCCC4)c(O)c(CN4CCCC4)c3)c2n1; test system = mouse, blood; setting = intraperitoneal, 57 mg/kg; measurement = red cell distribution width (SD); result = 26.3 fL
Structure (SMILES) = C[C@]1(CO)Cc2ncn(-c3ccc(C#N)c(Cl)c3)c2C(=O)O1; test system = healthy humans; setting = concentration not given, food-effect part total; measurement = drug-related Headache incidence; result = 25%
Structure (SMILES) = Nc1nc2cc(-c3ccc4ncc(C(=O)N5CCOCC5)n4c3)ccc2o1; test system = human, advanced solid tumours; setting = 100–300 mg once daily, any cause, grade ≥3; measurement = respiratory failure adverse events; result = 4%
Structure (SMILES) = O=C(Nc1ccccc1)C1CCN(C(=O)Oc2cccnc2)CC1; test system = healthy women; setting = oral, 60 mg, 7 days; measurement = adverse event Headache; result = 7.1%
Structure (SMILES) = COc1ncccc1-c1cnn2ccc(N3CCN(C(=O)OC(C)C)CC3)nc12; test system = mouse nerve ligation model, brain; setting = oral, 30 mg/kg, 120 min after last dose, repeat dosing day 5; measurement = drug concentration; result = 19 µM
Structure (SMILES) = CC(C)[C@@H]1CC[C@@H](C)C[C@@H]1O; test = acute oral toxicity OECD; test system = Swiss albino mice, serum; setting = oral, 300 mg/kg; measurement = direct bilirubin; result = 0.11 ± 0.04 mg/dL
Structure (SMILES) = CC(C)CC(=O)OC[C@H]1O[C@@](C#N)(c2ccc3c(N)ncnn23)[C@H](O)[C@@H]1O; test = plasma protein binding; test system = dog plasma; setting = 9 µM, time not given; measurement = recovery; result = 94%
Structure (SMILES) = CC(C)C[C@H](NC(=O)[C@H](CCCCN)NC(=O)OCC1c2ccccc2-c2ccccc21)C(=O)N[C@H](C(=O)N[C@@H](Cc1ccccc1)C(=O)N[C@@H](Cc1ccccc1)C(=O)N[C@@H](CCCCN)C(=O)NCC(=O)N[C@@H](Cc1ccccc1)C(=O)N[C@@H](C)C(=O)N[C@@H](Cc1c[nH]c2ccccc12)C(=O)N[C@@H](CC(N)=O)C(=O)N[C@H](C(=O)N[C@H]1CSSC[C@@H](C(=O)N[C@@H](Cc2c[nH]cn2)C(=O)N[C@@H](CCCNC(=N)N)C(=O)N[C@@H](CCCNC(=N)N)C(=O)N[C@@H](C)C(=O)N[C@@H](CC(N)=O)C(N)=O)NC(=O)[C@H](C(C)C)NC(=O)[C@H](CCCNC(=N)N)NC(=O)[C@H](C(C)C)NC(=O)CNC(=O)[C@H](CC(N)=O)NC(=O)[C@H](CCCNC(=N)N)NC(=O)[C@H](Cc2ccc(O)cc2)NC(=O)[C@H](C(C)C)NC1=O)C(C)C)C(C)C; test system = ICR mice, blood; setting = intraperitoneal, 5 mg/kg, day 5; measurement = neutrophils; result = 18.6 ± 1%
Structure (SMILES) = NCCCC[C@@H]1NC(=O)[C@@H](Cc2c[nH]c3ccccc23)NC(=O)[C@H](c2ccccc2)NC(=O)[C@@H]2C[C@@H](OC(=O)NCCN)CN2C(=O)[C@H](Cc2ccccc2)NC(=O)[C@H](Cc2ccc(OCc3ccccc3)cc2)NC1=O; test system = healthy volunteers; setting = subcutaneous, 600 µg twice daily, day 5, 1.00 h; measurement = QTcI change from baseline; result = 4.3 ms
Structure (SMILES) = CCc1ccc(CC/C=C/c2ccc3c(c2)C(=O)CC3)cc1; test system = Sprague-Dawley rat, male; setting = oral, 30 mg/kg/day, 14 days; measurement = TG; result = 0.45 mM
Structure (SMILES) = CN1CCN(S(=O)(=O)c2cc([N+](=O)[O-])ccc2N(CCOS(C)(=O)=O)CCOS(C)(=O)=O)CC1; test system = NSG mice, plasma; setting = intraperitoneal, 5 mg/kg, 1.5 h; measurement = concentration; result = not detected
Structure (SMILES) = CC(=O)c1c(C)c2cnc(Nc3ccc(C4CCN(CCS(C)(=O)=O)CC4)cn3)nc2n(C2CCCC2)c1=O; test system = HR+/HER2- advanced breast cancer patients; setting = oral, dose not given, all grades, dose escalation, sample B patients; measurement = patients with neutropenia; result = 73.7%
Structure (SMILES) = C[C@@H](NC(=O)N1C(=O)[C@H](Cc2ccnc(N)c2)[C@H]1C(=O)O)C1CCCCC1; test system = healthy adult Chinese volunteers; setting = continuous intravenous infusion, 1.0 mg/kg/h, 5-day infusion, CTCAE 5.0 grading; measurement = incidence of urine occult blood positive; result = 12.5%
Structure (SMILES) = Cn1cncc1-c1c(F)cncc1NC(=O)c1c(N)nn2cc(F)cnc12; test system = human patients; setting = oral, 80 mg once daily; measurement = grade ≥3 anaemia incidence; result = 0%
Structure (SMILES) = C[C@H]1CN(C(=O)CC#N)[C@]12CCN(c1ncnc3[nH]ccc13)C2; test system = rat male; setting = oral, 30 mg/kg repeated daily, 3 months, repeated-dose toxicity study; measurement = AUC at NOAEL; result = 12.8 µg·h/mL
Structure (SMILES) = O=S(=O)(Nc1ccccc1)c1ccc(NC(=S)Nc2ccccc2)cc1; test system = female mouse, blood; setting = oral, 5 mg/kg daily, 14 days; measurement = mean corpuscular haemoglobin; result = 14.9 pg
Structure (SMILES) = CCc1cc(C(=O)NC)c2nccc(N3CCc4c(cc(Cn5ccnc5)cc4-c4cn(C)nc4C(F)(F)F)C3=O)c2c1; test system = Sprague Dawley rats, male, bile duct-cannulated, plasma; setting = oral, 50 mg/kg; measurement = AUC extrapolated; result = 0%
Structure (SMILES) = O=C(O)CCC(CP(=O)(O)O)C(=O)O (centres unmarked); test system = NSG mice, C4-2 xenograft, kidney; setting = intravenous, 3 mg/kg, 0.25 to 6 h; measurement = AUC(0-t); result = 138 ± 39.7 nmol·h/g
Structure (SMILES) = O=S(=O)([O-])C(F)(F)C(F)(F)C(F)(F)C(F)(F)C(F)(F)C(F)(F)C(F)(F)C(F)(F)F.[K+]; test = RT-qPCR, measured: Cyp2b10; test system = EtOH-fed mice, liver; setting = dose not given; scale = reference: efavirenz; measurement = mRNA level; result = increased
